Experimental data from different studies.
A part holds a random share of what one study measured. Substitutions count along the parent as printed.

Sample 1 — target: CCND1, cyclin fold, Cln2 fusion (human); technique: yeast growth competition, sequencing; medium: yeast; notes: weak parent motif; relative to: not given; reading: higher = stronger binding
Parent: KIF20B docking peptide (human); KRAKRKLYTSEIS; partner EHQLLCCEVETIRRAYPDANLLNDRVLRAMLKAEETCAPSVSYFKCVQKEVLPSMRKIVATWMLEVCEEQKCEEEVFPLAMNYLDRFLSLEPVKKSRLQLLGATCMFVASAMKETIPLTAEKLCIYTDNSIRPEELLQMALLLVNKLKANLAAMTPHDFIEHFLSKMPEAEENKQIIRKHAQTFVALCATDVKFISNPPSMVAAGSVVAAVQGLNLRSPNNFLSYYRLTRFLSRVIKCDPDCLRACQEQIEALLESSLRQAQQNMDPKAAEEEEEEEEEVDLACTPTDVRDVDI
Substitution | normalised enrichment score
E11A | 0.0605
K4A | 0.0807
S10A | -0.443
S13A | -0.101
K1A | 0.0276
I12A | -0.00749

Sample 2 — technique: aptamer microarray, sandwich; form: DNA with 2'F-ANA; medium: in vitro; concentration: 200 nM; together with: Cy3 exosite-II aptamer, 400 nM; reading: higher = stronger binding; strand: GGTTGGTGTGGTTGG
Target: Prothrombin, mature alpha-thrombin (F2, Homo sapiens, UniProt P00734)
Notes: whole 15-mer aptamer, many near background
Modification | mean fluorescence intensity
2'F-ANA at 3 4 6 8 9 10 11 12 13 14 | 142 a.u.
2'F-ANA at 2 4 5 8 10 15 | 63.9 a.u.
2'F-ANA at 2 4 5 7 8 10 11 15 | 53.7 a.u.
2'F-ANA at 1 2 9 10 11 12 | 61.5 a.u.
2'F-ANA at 1 7 9 10 | 53.4 a.u.
2'F-ANA at 1 2 5 6 9 11 13 | 52.8 a.u.
2'F-ANA at 2 3 4 5 8 9 11 13 14 15 | 52.6 a.u.
2'F-ANA at 1 3 5 7 8 9 10 14 | 50.3 a.u.
2'F-ANA at 1 2 4 5 6 14 | 47.1 a.u.
2'F-ANA at 1 4 5 6 7 8 9 10 12 14 15 | 96.7 a.u.
2'F-ANA at 1 3 7 8 11 13 14 | 102 a.u.
2'F-ANA at 1 7 8 11 12 14 15 | 75.8 a.u.
2'F-ANA at 3 5 7 9 10 11 13 14 15 | 69 a.u.
2'F-ANA at 3 7 9 11 12 13 15 | 1160 a.u.
2'F-ANA at 6 7 9 10 11 13 14 15 | 97.1 a.u.
2'F-ANA at 1 5 6 9 11 13 | 50.1 a.u.
2'F-ANA at 1 3 5 6 7 8 9 10 11 13 15 | 53.7 a.u.

Sample 3 — target: CREBZF, bZIP domain (human); technique: DHFR protein complementation; medium: yeast; relative to: wild-type JUN-FOS pair; reading: higher = stronger binding
Notes: single substitutions, most at no-binding floor
Parent: JUN, bZIP domain (human); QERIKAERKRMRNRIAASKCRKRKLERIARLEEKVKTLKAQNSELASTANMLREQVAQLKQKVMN; partner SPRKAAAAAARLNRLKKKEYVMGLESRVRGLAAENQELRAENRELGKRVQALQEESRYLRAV
Substitution | binding fitness
Q41P | -1.46 natural log
K36H | -1.52 natural log
L31S | -1.46 natural log
S43L | -1.44 natural log
A46W | -1.32 natural log
E54P | -1.31 natural log
L59R | -1.39 natural log
E44R | -1.47 natural log
I28N | -1.53 natural log
R53W | -1.49 natural log
R53I | -1.49 natural log
L45H | -1.46 natural log
Q41V | -1.46 natural log
V56A | -1.43 natural log
K39V | -1.45 natural log
T37R | -1.37 natural log
A46S | -1.53 natural log
K34V | -1.26 natural log
A46V | -1.49 natural log
K39Y | -1.42 natural log
E33W | -1.38 natural log
L38H | -1.49 natural log
I28Q | -1.49 natural log
T37L | -1.35 natural log
I28D | -1.46 natural log

Sample 4 — technique: RNA Bind-n-Seq; form: RNA; medium: in vitro; concentration: not given; relative to: input RNA pool; reading: higher = stronger binding
Target: RING finger protein unkempt homolog, zinc fingers 1-6, GST-SBP tag (UNK, Homo sapiens, UniProt Q9C0B0, residues 30-357)
Chain of UniProt Q9C0B0 (30-357, looked up): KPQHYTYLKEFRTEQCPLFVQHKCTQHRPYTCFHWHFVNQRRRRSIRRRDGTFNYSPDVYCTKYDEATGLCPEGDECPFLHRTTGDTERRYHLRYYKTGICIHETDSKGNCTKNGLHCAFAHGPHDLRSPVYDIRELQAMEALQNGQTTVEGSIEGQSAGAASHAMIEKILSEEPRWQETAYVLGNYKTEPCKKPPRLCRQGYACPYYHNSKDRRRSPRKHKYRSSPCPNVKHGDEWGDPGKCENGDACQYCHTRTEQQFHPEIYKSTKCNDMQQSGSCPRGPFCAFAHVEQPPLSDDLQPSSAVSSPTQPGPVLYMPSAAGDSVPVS
Notes: RNA with constant flanks, human-mouse chimeric sites, ends assumed
Strand | bound/input enrichment
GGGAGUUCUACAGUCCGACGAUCGGUGGGGGGUUGUCAUUCGUUUGAGCUGCUGAUUUUCAUGAGUCGCCUUCAAAACUCUCGCAUAGGGUUGACAAUGUGGGGGGGUGGGGGAUCCAGCUUAUUCUUUUAUUUUCAAGUCCACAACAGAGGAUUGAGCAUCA | 0.582 ratio
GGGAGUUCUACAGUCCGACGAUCCACGUGUCUGCAGUACUUGAUGUGGAUUACUCUCCCACUGGGAAGGAAUUUGUGUCUGCCAGCUUUGAUAAGUCUAUUAGAAUCUUUCCUGUGGACAAGAGCCGAAGCAGGGAGGUAUAUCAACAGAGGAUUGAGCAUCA | 0.22 ratio
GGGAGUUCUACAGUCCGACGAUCGAAUCCUCCCGUGCAAAAUUUUGCAACACCAAGCUCACAGCAGCAGCAUCUUAGUCACAGUAGGGUAGUUUUGGGGCUCUGUGGCCAUGGUUUUACUCACAUGCAGGUUUGGAAAAUGUACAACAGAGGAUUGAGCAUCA | 1.44 ratio
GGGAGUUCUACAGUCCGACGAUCAGUGUGCAGGAAUUCAUGACCUUCACGAGUCAACUGAUUGUGGAGCGCUCGGGGAAAGGCAGCAGAGCUUCUGUCAAAGAACAAGAGUAUCUUUGCCAUGUCUACGUCCGGAGCGACAGUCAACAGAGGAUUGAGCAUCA | 0.0943 ratio
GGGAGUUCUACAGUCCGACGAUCAUGGAGAAGGAUUCUCUGCCCCGCUUUGUGCGCUCUGAAUUUUAUAAGGAGCUAAUCAAGUAGUCAUCUGGUCAGGCUUCCAAAAGUUCCUGUGAGUUAUUUCCUCCAUCCUUUGUAGCACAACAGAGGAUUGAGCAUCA | 0.338 ratio
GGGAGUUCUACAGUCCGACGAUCACUCAGAGAUUAUAUUCCCAAAGUGCUGGGAGUAAAGUCUGAUAUUACACACCUAACUUGAUGGAUAUAUAUUUUUUUUAAUAUGAAUCUUCCUGUUCGUCCAGGGAAGAAAGAUUUGUUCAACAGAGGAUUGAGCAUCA | 1.51 ratio
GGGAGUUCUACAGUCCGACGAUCGCGGCAGAAUCAUGGAGGACAUAAUGCAGCUCCCCAAAGCGCGCGUCAACGCCAGCAUGUUACCACAGUAUAUCGACAAGCCUGUCUGCUUCGUGGGGAAGCUGGAAAAGAUUCAUCCCACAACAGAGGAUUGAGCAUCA | 0.143 ratio
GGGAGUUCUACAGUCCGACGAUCAUUGUUGAAGCGAAUCCACUCCUAGAAGCAUUUGGAAAUGCAAAGACUGUUCGCAACAAUAAUAGCAGUCGAUUUGGAAAAUUUGUAGAAAUUCAUUUCAAUGAAAAGAGCUCAGUUGUUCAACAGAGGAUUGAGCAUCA | 0.152 ratio
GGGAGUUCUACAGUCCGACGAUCGUACUGCAGCAGCAGGGCAAGCUGCAGGAAGCUCUGAUGCAUUAUAAGGAGGCUAUUCGAAUUAGUCCUACCUUUGCUGAUGCCUACUCUAAUAUGGGAAACACUCUAAAGGAGAUGCAGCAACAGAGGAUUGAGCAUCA | 0.228 ratio
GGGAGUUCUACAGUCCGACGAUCUGGCGCCUGCGCUCCCCGUUUUUAAAUUUAAGUGUAUUUUUAUAAGAUACAUGUAUUUACAAUUGAGCUUUUGUUACAUAAUGCUGAAAUGCUACUGCAAUAUUAUGAAAAUGUUUCAAUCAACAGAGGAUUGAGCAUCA | 0.286 ratio
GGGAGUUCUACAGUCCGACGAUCUCUUUAAAAAAAAAAUUACCUUUUCUGACAGUGCUUUCCCUCCCAUAGAUCCACGUUCAAGCUCAAAGAGCAAAGGCUUUGCACGGAUCUGAUGAUGCUGAUGAAGAAAGAUUUCUGAGACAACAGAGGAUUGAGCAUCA | 0.43 ratio

Sample 5 — technique: universal PBM; form: double-stranded DNA, one strand shown; medium: in vitro; concentration: not given; reading: higher = stronger binding
Target: Sal-like protein 4, full length isoform B (SALL4, Homo sapiens, UniProt Q9UJQ4-2, residues 1-616)
Notes: 8-mer, flanks averaged, mean of replicates
Strand | E-score
CAAATGCG | -0.00679
CTGTTAGC | -0.162
CTGGCGGA | -0.221
AACTCAGG | -0.0647
GCGGGTAC | -0.149
CCAGGAGA | -0.165
GGCCTGCA | -0.367
ACAACTCA | 0.131
CGCGTAGA | -0.152
CGACTCAA | -0.0702
ATGTGGCA | -0.0762
CATTTGAA | 0.152
AAATTCCA | 0.268
GAAGCATA | 0.184
AACGGCAG | -0.199
CCGCTAGC | -0.277
AGCTGGTC | -0.094
CAGCAGCG | -0.278
CCGCTATC | -0.128
CCTGATGC | -0.0337
AGTATGGA | 0.249
ACCGTAAC | 0.0105

Mixed results
Molecule | target | test | system | setting | scale | endpoint | value
PhoQ, residues 284 288 289 292 302 303 TAVSDG | PhoP, residues 12 14 15 18 19 NHFIF (Escherichia coli, UniProt P23836) | Sort-seq, refers to: YFP reporter | E. coli | PhoQ-PhoP variant library, together with: 10 µM Mg2+ | relative to: high Mg2+ state, higher = stronger signaling | fold induction | 1.1

For quick reference, copied from above (sample 1):
Substitution | normalised enrichment score
S13A | -0.101
K1A | 0.0276
I12A | -0.00749
K4A | 0.0807
E11A | 0.0605
S10A | -0.443
